Published values of several laboratories.
± gives the spread as reported.

Structure (SMILES) | assay | test system | conditions | how to read | measurement | value
COc1ccc(C(=O)CCc2cc(C(CCc3ccc(O)cc3OC)c3ccc(O)cc3)c(O)cc2OC)cc1 (racemic) | – | human blood | 30 µM, added: A23187 | – | DHA level | 132000 ± 38400 pg/mL
COC1CN([C@H]2CC[C@H]([C@@]3(C)Oc4c(Cl)cc(C(=O)NCc5c(SC)cc(C)[nH]c5=O)c(C)c4O3)CC2)C1 | RNA-seq, refers to: EXOC6B mouse homolog | mouse, HT-1376 xenograft, whole blood | dose not given | reference: vehicle | log2 fold change | 0.0432
CC(=O)[O-].O.[Cu+2].[O-]c1ccc(Br)cc1C=NCCN1CCOCC1 | hydroxyl radical scavenging | – | 80 µM | – | inhibition | 16.6%
COc1cc(O)ccc1CCC(c1ccc(O)cc1)c1cc2c(c(C)c1O)OC(c1ccc(O)cc1)CC2 (mixture of isomers) | – | human blood | 1 µM, added: A23187 | – | 20-OH-LTB4 level | 429 ± 187 pg/mL
N=C(N)NCCC[C@@H]1NC(=O)[C@H](CCCNC(=N)N)NC(=O)[C@@H](CCCNC(=N)N)NC(=O)[C@@H](CCCNC(=N)N)NC(=O)[C@@H](C(c2ccccc2)c2ccccc2)NC(=O)[C@H](Cc2c[nH]c3ccccc23)NC(=O)[C@@H](C(c2ccccc2)c2ccccc2)NC1=O | – | bacterial membrane liposomes | 50 µg/mL, 20 min | – | calcein leakage | 56 to 64%
COc1ccc2cc3[n+](cc2c1OCCCOC(=O)c1cscn1)CCc1cc2c(cc1-3)OCO2 | – | C57BL/6 mice, high-fat diet | oral gavage, 40 mg/kg daily, 14 weeks | reference: HFD control | plasma LDL-C reduction | 62.4%
CC(CCC(=O)NCc1ccc(C(=O)NO)cc1)C1CCC2C3C(O)CC4CC(O)CCC4(C)C3CCC12C (centres unmarked) | refers to: GUDCA | PCK rat (Pkhd1 mutant), peripheral blood | oral gavage, dose not given, 5 months | reference: total bile acids | relative abundance | 2.21%
CN1CCC[C@]1(C)/C=C/S(=O)(=O)NC(=O)Nc1c2c(cc3c1CCC3)CCC2 | IL-1β release | human, whole blood ex vivo | oral, 50 mg twice daily, day 14, 336 h, multiple ascending dose, added: LPS and ATP | – | inhibition | 98.5%

A few entries again:
Structure (SMILES) | assay | test system | conditions | how to read | measurement | value
COC1CN([C@H]2CC[C@H]([C@@]3(C)Oc4c(Cl)cc(C(=O)NCc5c(SC)cc(C)[nH]c5=O)c(C)c4O3)CC2)C1 | RNA-seq, refers to: EXOC6B mouse homolog | mouse, HT-1376 xenograft, whole blood | dose not given | reference: vehicle | log2 fold change | 0.0432
